Measured values of several laboratories.
Compare with care: the assays were run in different laboratories. ± marks the error that the study gave.
MDM2: E3 ubiquitin-protein ligase Mdm2 (MDM2, Homo sapiens, UniProt Q00987)
Chain of UniProt Q00987 (whole entry, unmodified, looked up): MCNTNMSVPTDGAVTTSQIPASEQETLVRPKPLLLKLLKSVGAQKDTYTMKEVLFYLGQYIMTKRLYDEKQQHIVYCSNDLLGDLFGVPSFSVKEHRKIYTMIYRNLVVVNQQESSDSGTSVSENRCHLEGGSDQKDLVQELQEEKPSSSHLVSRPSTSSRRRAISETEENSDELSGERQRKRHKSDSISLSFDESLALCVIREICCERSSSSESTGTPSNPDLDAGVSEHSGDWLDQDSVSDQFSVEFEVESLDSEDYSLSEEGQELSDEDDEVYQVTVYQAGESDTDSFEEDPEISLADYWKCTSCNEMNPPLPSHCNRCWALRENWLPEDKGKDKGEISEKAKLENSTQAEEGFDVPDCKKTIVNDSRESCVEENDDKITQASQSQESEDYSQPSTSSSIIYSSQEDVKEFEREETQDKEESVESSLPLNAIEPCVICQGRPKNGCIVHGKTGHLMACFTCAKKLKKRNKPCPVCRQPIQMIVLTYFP

| Compound | target | test | conditions | endpoint | value |
| --- | --- | --- | --- | --- | --- |
| CCOC(=O)[C@@H]1Cc2c(cc([N+](=O)[O-])cc2[N+](=O)[O-])[C@H](O)[C@]12C(=O)Nc1ccc(Br)cc12 | MDM2 |  |  | IC50 | 78 nM |
| CC(C)Oc1cc(NC(=O)[C@H](Cc2ccccc2)NC(=O)c2ccc(N)cc2OCc2ccccc2)ccc1C(=O)NCC(=O)O | E3 ubiquitin-protein ligase Mdm2, L33E; with p53 (MDM2, Homo sapiens, UniProt Q00987, L33E) | fluorescence anisotropy competition | pH 7.5 | IC50 | 10100 ± 1100 nM |
| CC(=O)N(CC(=O)N(C)[C@@H](C)C(=O)N(Cc1c[nH]c2cc(Cl)ccc12)[C@@H](C)C(=O)N(C)[C@@H](C)C(=O)N(CCC(C)(C)C)[C@@H](C)C(=O)N(C)CC(=O)N(C)CC(=O)N(C)CC(=O)NCCNC(=O)c1ccc2c(c1)C(=O)OC21c2ccc(O)cc2Oc2cc(O)ccc21)Cc1ccccc1 | E3 ubiquitin-protein ligase Mdm2, N-terminal domain 17-125 (MDM2, Homo sapiens, UniProt Q00987) | binding, fluorescence anisotropy | 25 °C, fluorescein-labelled peptoid, 10 nM | Kd | 140 nM |
| CC(C)C[C@H](NC(=O)[C@H](CCC(N)=O)NC(=O)[C@H](CCCNC(=N)N)NC(=O)[C@@H](N)CS)C(=O)N[C@@H](CCCNC(=N)N)C(=O)N[C@@H](CCCCN)C(=O)NCC(=O)N[C@@H](CCCCN)C(=O)N[C@@H](Cc1ccccc1)C(=O)N[C@@H](Cc1ccccc1)C(=O)N[C@@H](CO)C(=O)N[C@@H](CCC(=O)O)C(=O)NCC(=O)NCC(=O)N[C@@H](CO)C(=O)NCC(=O)NCC(=O)N[C@H](C(=O)N[C@@H](CO)C(=O)N[C@@H](Cc1ccccc1)C(=O)N[C@@H](CCC(=O)O)C(=O)N[C@@H](CCC(N)=O)C(=O)N[C@@H](Cc1ccccc1)C(=O)N[C@@H](Cc1c[nH]c2ccccc12)C(=O)N[C@@H](C)C(=O)N[C@@H](Cc1c[nH]c2ccccc12)C(=O)N[C@@H](CC(C)C)C(=O)N[C@@H](Cc1c[nH]c2ccccc12)C(=O)N1CCC[C@H]1C(=O)O)[C@@H](C)O | MDM2 | fluorescence polarization | with: rhodamine-labeled peptide | Kd | 82.4 nM |
| CC(=O)N[C@@H](CC(C)C)C(=O)N[C@H](C(=O)N[C@@H](Cc1ccccc1)C(=O)N[C@@H]1CSCc2ccc(cc2)-c2ccc(cc2)CSC[C@@H](C(=O)N[C@@H](CO)C(N)=O)NC(=O)[C@H](CC(C)C)NC(=O)[C@H](CCC(N)=O)NC(=O)[C@H](C)NC(=O)[C@H](Cc2c[nH]c3ccccc23)NC(=O)[C@H](Cc2ccc(O)cc2)NC(=O)[C@H](CCC(=O)O)NC1=O)[C@@H](C)O | MDM2 | ligand displacement, FP |  | IC50 | 95 nM |
| CC(=O)N(Cc1cccc(Cl)c1)[C@@H](C)C(=O)N(C)[C@@H](C)C(=O)N(Cc1c[nH]c2ccccc12)[C@@H](C)C(=O)N(C)[C@@H](C)C(=O)N(CCC(C)C)[C@@H](C)C(N)=O | MDM2 | ligand displacement, FP |  | Ki | 6000 nM |
| CC(=O)N[C@@H](CC(C)C)C(=O)N[C@H](C(=O)N[C@@H](Cc1ccccc1)C(=O)N[C@H]1CSc2c(F)c(F)c(c(F)c2F)-c2c(F)c(F)c(c(F)c2F)SC[C@@H](C(=O)N[C@@H](CO)C(N)=O)NC(=O)[C@H](CC(C)C)NC(=O)[C@H](CCC(N)=O)NC(=O)[C@H](C)NC(=O)[C@H](Cc2c[nH]c3ccccc23)NC(=O)[C@H](Cc2ccc(O)cc2)NC(=O)[C@H](CCC(=O)O)NC1=O)[C@@H](C)O | MDM2 | ligand displacement, FP |  | IC50 | 2360 nM |
| CC(=O)N(Cc1ccccc1)[C@@H](C)C(=O)N(C)[C@@H](C)C(=O)N(Cc1c[nH]c2ccccc12)[C@@H](C)C(=O)N(C)[C@@H](C)C(=O)N(CCC(C)C)[C@@H](C)C(N)=O | MDM2 | binding, fluorescence polarization | with: labelled PMI peptide | IC50 | 18000 ± 1000 nM |
| CC(=O)N[C@@H](CC(C)C)C(=O)N[C@H](C(=O)N[C@@H](Cc1ccccc1)C(=O)N[C@H]1CCSc2c(F)c(F)c(c(F)c2F)SCC[C@@H](C(=O)N[C@@H](CCC(N)=O)C(=O)N[C@@H](CC(C)C)C(=O)N[C@H](C(=O)N[C@@H](CO)C(N)=O)[C@@H](C)O)NC(=O)[C@H](Cc2c[nH]c3ccccc23)NC(=O)[C@H](Cc2ccc(O)cc2)NC(=O)[C@H](CCC(=O)O)NC1=O)[C@@H](C)O | MDM2 | ligand displacement, FP |  | IC50 | 92 nM |
| CCCCN(C(=O)[C@H](C)N(C)C(=O)[C@H](C)N(Cc1c[nH]c2ccccc12)C(=O)[C@H](C)N(C)C(=O)[C@H](C)N(Cc1ccccc1)C(C)=O)[C@@H](C)C(N)=O | MDM2 | ligand displacement, FP |  | Ki | 10600 nM |

Repeated from above:
| Compound | target | test | conditions | endpoint | value |
| --- | --- | --- | --- | --- | --- |
| CC(C)Oc1cc(NC(=O)[C@H](Cc2ccccc2)NC(=O)c2ccc(N)cc2OCc2ccccc2)ccc1C(=O)NCC(=O)O | E3 ubiquitin-protein ligase Mdm2, L33E; with p53 (MDM2, Homo sapiens, UniProt Q00987, L33E) | fluorescence anisotropy competition | pH 7.5 | IC50 | 10100 ± 1100 nM |
